Assay results gathered from unrelated publications.
Each line is one published result; not all experiments were run side by side. Values joined by “and” are separate records of one study, mostly repeats; a detail may differ. Numbers after ± are the reported error.

SMILES	test	test system	setting	how to read	AUC(0-inf)
Nc1nc(O)c2ncn(COC(CO)CO)c2n1		Sprague-Dawley rat male	oral, 10 mg/kg		0.55 ± 0.0807 µg·h/mL
Cc1nc(-c2cnc(NC(C)C)n(C)c2=O)ccc1Oc1ccnc(-c2cnn(C)c2)c1		Sprague-Dawley rat, male, plasma	oral, 10 mg/kg		278 µg·h/mL
Cc1cccc(CNC(=O)c2cn(CCNC(=O)c3ccccc3Sc3c([N+](=O)[O-])ncn3C)c3cc4c(cc3c2=O)OC(F)(F)O4)n1		Sprague-Dawley rat, male, plasma	intravenous, 20 mg/kg of parent drug		1.65 ± 0.0577 µg·h/mL
Cc1cc(-c2ccc3cc[nH]c(=O)c3c2)ccc1O[C@H]1O[C@H](CO)[C@@H](O)[C@H](O)[C@@H]1O		male Sprague-Dawley rat, plasma	intravenous, 3 mg/kg, group mean		0.125 µg·h/mL
C=CC(=O)N1CCC(Oc2cc3c(Nc4ccc(Cl)c(Cl)c4F)ncnc3cc2OC)CC1		male Sprague-Dawley rats, plasma	oral, 2 mg/kg, together with: schisandrin B pretreatment 20 mg/kg daily 1 week		6.04 ± 1.58 µg·h/mL
CC[C@@H]([C@H](C)O)n1ncn(-c2ccc(N3CCN(c4ccc(OC[C@@H]5CO[C@@](Cn6cncn6)(c6ccc(F)cc6F)C5)cc4)CC3)cc2)c1=O		Sprague-Dawley rats, plasma	oral, 40 mg/kg, together with: zanubrutinib 16 mg/kg		59.1 ± 21.7 µg·h/mL
CNCc1cc(-c2ccccc2F)n(S(=O)(=O)c2cccnc2)c1		rat Sprague-Dawley male, plasma	oral, 10 mg/kg		0.303 µg·h/mL
CCc1cc(C(=O)NC)c2nccc(N3CCc4c(cc(Cn5ccnc5)cc4-c4cn(C)nc4C(F)(F)F)C3=O)c2c1		Sprague-Dawley rats, male, plasma	oral, 50 mg/kg		55.7 µg·h/mL
C[C@H]1C[C@@H](N2C(=N)N[C@](C)(c3cccc(NC(=O)c4cccc(C#N)c4)c3Cl)CC2=O)CCO1		Han Wistar rat, male	oral, 1000 mg/kg, 7 days		1050 µg·h/mL
CNC(=O)c1cccc(-c2ccc(O[C@H]3O[C@H](CO)[C@@H](O)[C@H](O)[C@@H]3O)c(C)c2)c1		male Sprague-Dawley rat, plasma	oral, 10 mg/kg, group mean		0.016 µg·h/mL
Cc1ccc(S(=O)(=O)n2cc3c4c2C(=O)C(NCc2ccc(Cl)cc2)=CC4=NCC3)cc1		Sprague-Dawley rat, plasma	intravenous, 5 mg/kg, individual rat		1.94 µg·h/mL and 2 µg·h/mL
C1=C/COCc2cc(ccc2OCCN2CCCC2)Nc2nccc(n2)-c2cccc(c2)COC/1		Sprague-Dawley rats, male, plasma	oral, dose not given, together with: isavuconazole	reference: isavuconazole alone	2.6 fold increase
COC(=O)C1=CO[C@@H](O[C@@H]2O[C@H](CO)[C@@H](O)[C@H](O)[C@H]2O)[C@@H]2C(CO)=CC[C@H]12		rat, plasma	oral, 500 mg/kg Eu extract, dosed as Eu extract		0.2382 ± 0.00127 µg·h/mL
Cc1cccc(CNC(=O)c2cn(CCNC(=O)c3ccccc3S)c3cc4c(cc3c2=O)OC(F)(F)O4)n1		Sprague-Dawley rat, male, plasma	intravenous, 5 mg/kg of parent compound		0.145 ± 0.00958 µg·h/mL
CN(C)C(=O)c1cc2cnc(Nc3ccc(N4CCNCC4)cn3)nc2n1C1CCCC1	microdialysis	Sprague-Dawley rats, male, brain ECF	intraperitoneal, 100 mg/kg		1.16 µg·h/mL
CSc1ccccc1C(=O)NCCn1cc(C(=O)NCc2cccc(C)n2)c(=O)c2cc3c(cc21)OC(F)(F)O3		Sprague-Dawley rat, male, whole blood	intravenous, 5 mg/kg of parent compound		0.131 ± 0.0121 µg·h/mL
C=CC(=O)N1CCC[C@@H](n2nc(-c3ccc(Oc4ccccc4)cc3)c3c(N)ncnc32)C1		rat (Wistar, male)	oral, 40 mg/kg		0.406 ± 0.0681 µg·h/mL
O=C1c2ccncc2C(=O)c2c1[nH]c1ccccc21		Sprague-Dawley rat, male, plasma	intravenous, 5 mg/kg		3.21 ± 1.77 µM·h
OCC1=C[C@@H](O)[C@@H]2C=CO[C@@H](O[C@@H]3O[C@H](CO)[C@@H](O)[C@H](O)[C@H]3O)[C@H]12		rat, plasma	oral, 500 mg/kg Eu extract, dosed as Eu extract		0.329 ± 0.211 µg·h/mL
CNC(=O)c1cccc(-c2ccc([C@@H](O)[C@H]3O[C@H](CO)[C@@H](O)[C@H](O)[C@@H]3O)c(C)c2)c1		male Sprague-Dawley rat, plasma	intravenous, 3 mg/kg, group mean		1.44 µg·h/mL
CCCc1c(-c2ccc(O)cc2)nn(-c2ccc(O)cc2)c1-c1ccc(O)cc1	refers to: aglycone	rat, Long-Evans, female, serum	subcutaneous, 2 mg/kg single dose		2 ± 0.35 µM·h

Excerpt of the above:
SMILES	test	test system	setting	how to read	AUC(0-inf)
C[C@H]1C[C@@H](N2C(=N)N[C@](C)(c3cccc(NC(=O)c4cccc(C#N)c4)c3Cl)CC2=O)CCO1		Han Wistar rat, male	oral, 1000 mg/kg, 7 days		1050 µg·h/mL
O=C1c2ccncc2C(=O)c2c1[nH]c1ccccc21		Sprague-Dawley rat, male, plasma	intravenous, 5 mg/kg		3.21 ± 1.77 µM·h
